Experimental data gathered from unrelated publications.
Every numbered part comes from another study and shows a few of its results, in no order.

Sample 1
Target: Interferon regulatory factor 7, full length, phosphomimetic (IRF7, Homo sapiens, UniProt Q92985, residues 1-503, S101K/S471D/S472D/S475D/S476D/S477D/S483D/S484D/S487D)
Chain of UniProt Q92985 (whole entry, unmodified, looked up): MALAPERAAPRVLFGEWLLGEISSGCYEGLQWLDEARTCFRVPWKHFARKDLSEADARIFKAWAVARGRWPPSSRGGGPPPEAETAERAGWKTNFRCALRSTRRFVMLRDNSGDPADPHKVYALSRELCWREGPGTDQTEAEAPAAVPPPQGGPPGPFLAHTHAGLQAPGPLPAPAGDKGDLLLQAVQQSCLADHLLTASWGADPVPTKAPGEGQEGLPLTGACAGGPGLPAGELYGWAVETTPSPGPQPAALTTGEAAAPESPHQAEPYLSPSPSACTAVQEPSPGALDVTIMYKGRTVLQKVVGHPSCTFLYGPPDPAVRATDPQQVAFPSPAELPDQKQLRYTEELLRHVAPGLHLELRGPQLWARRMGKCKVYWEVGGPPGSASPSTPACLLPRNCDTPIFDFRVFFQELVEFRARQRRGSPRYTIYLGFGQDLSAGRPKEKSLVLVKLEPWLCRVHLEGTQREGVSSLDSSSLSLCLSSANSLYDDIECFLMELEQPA
Method: protein-binding microarray
Molecule type: double-stranded DNA, one strand shown
Matrix: in vitro
Concentration: 250 nM
Notes: 60-bp whole probe
With: salmon DNA 0.4 mg/ml
Baseline: random background probes
Reading: higher = stronger binding
| Sequence | log fluorescence [z-score] |
| --- | --- |
| GCCTAGCACGCCGGACTGGGTATCGGGACGTGCTAGGTCTTGATTCGCTTGACGCTGCTG | -0.321 |
| GCCTAGCACGCAGATTGGGTTTCAGGGCTGTGCTAGGTCTTGATTCGCTTGACGCTGCTG | -0.777 |
| GCCTAGCACATATATATTATATATTTATGTGTGCTAGTCTTGATTCGCTTGACGCTGCTG | 0.72 |

Sample 2
Target: Histone acetyltransferase KAT6A, both winged helices, GST fusion (KAT6A, Homo sapiens, UniProt Q92794, residues 1-181)
Method: protein binding microarray
Molecule type: double-stranded DNA, one strand shown
Matrix: in vitro
Concentration: not given
Notes: 8-mer, flanks averaged, mean of 2 arrays, mostly near background
Baseline: not given
Reading: higher = stronger binding
Construct (chain): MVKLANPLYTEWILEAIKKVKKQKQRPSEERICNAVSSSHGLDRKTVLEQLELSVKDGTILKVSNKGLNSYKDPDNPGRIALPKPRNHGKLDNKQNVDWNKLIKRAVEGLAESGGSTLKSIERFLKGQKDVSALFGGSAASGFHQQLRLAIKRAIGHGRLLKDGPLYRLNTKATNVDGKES
| Sequence | E-score |
| --- | --- |
| ACCCTCGG | -0.0723 |
| CCTGATAC | -0.115 |
| CAATGCCA | -0.15 |

Sample 3
Target: RING finger protein unkempt homolog, zinc fingers 1-6, SBP tag (UNK, Homo sapiens, UniProt Q9C0B0, residues 30-357)
Chain of UniProt Q9C0B0 (30-357, looked up): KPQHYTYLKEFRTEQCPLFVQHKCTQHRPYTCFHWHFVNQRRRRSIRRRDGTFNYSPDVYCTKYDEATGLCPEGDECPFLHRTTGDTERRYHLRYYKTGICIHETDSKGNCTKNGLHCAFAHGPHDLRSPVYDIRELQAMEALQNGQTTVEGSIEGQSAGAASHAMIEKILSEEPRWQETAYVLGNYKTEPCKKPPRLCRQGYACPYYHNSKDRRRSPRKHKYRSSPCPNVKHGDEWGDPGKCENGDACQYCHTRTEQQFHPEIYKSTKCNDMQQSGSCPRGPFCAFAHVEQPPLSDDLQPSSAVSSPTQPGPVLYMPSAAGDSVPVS
Method: RNA Bind-n-Seq
Molecule type: RNA
Matrix: in vitro
Concentration: 100 nM
Notes: RNA with constant flanks, vertebrate orthologous sites, ends assumed
Baseline: input RNA pool
Reading: higher = stronger binding
| Sequence | bound/input enrichment [ratio] |
| --- | --- |
| GGGAGUUCUACAGUCCGACGAUCUCCCAGCACUCUGAUAAAAAGUGUGGACUGGCUGCUCGUCUUUUCCUUAUUCUUUCUAAUUAGCUUUAUUAUGUACGCCACCAUUCGAACUGAGAGCAUCCGGUGGCUAAUUCCAGGACACAACAGAGGAUUGAGCAUCA | 3.57 |
| GGGAGUUCUACAGUCCGACGAUCGAUUUGGACCUUGGAGCUGAACCAGGGAGCUAGCAAAAGUAAAGCAGACUUAUAAAAUUAUAGCUAUGUGCAGCUGCACAACACAGUCCUUCCACUAGCAGCUGUGUUAAAGUAUUUAUACAACAGAGGAUUGAGCAUCA | 0.804 |
| GGGAGUUCUACAGUCCGACGAUCGGGACGCUUUGAUGUAAAAAUUGAAGUUAAGAGCUGAUCACAAGCACAAAUCCUCCCCUCUAGCCAUUUAAUAAGUUAAAAAUUACAAAAACAAAACCUACUAGUCUUGAACAAACUGUCCAACAGAGGAUUGAGCAUCA | 8.77 |

Single results of other studies
| Substance | target | assay | test system | conditions | how to read | endpoint | value |
| --- | --- | --- | --- | --- | --- | --- | --- |
| PhoQ, residues 284 288 289 292 302 303 TLASMF | PhoP, residues 12 14 15 18 19 TTLRV (Escherichia coli, UniProt P23836) | Sort-seq, refers to: YFP reporter | E. coli | PhoQ-PhoP variant library, with: 10 µM Mg2+ | baseline: high Mg2+ state, higher = stronger signaling | fold induction | 1.52 |

Repeated from above (sample 1):
| Sequence | log fluorescence [z-score] |
| --- | --- |
| GCCTAGCACGCAGATTGGGTTTCAGGGCTGTGCTAGGTCTTGATTCGCTTGACGCTGCTG | -0.777 |
